Results pooled from the literature.
A part holds a random share of what one study measured.

Set 1
Target: RNA binding protein fox-1 homolog 2, RRM domain, GST-SBP tag (RBFOX2, Homo sapiens, UniProt O43251-10, residues 100-194)
Technique: RNA Bind-n-Seq
Molecule type: RNA
Sample: in vitro
Concentration: 365 nM
Setting: natural RNA segment, single round, ends assumed
Relative to: no-protein control
Direction: higher = stronger binding
Quantity: RBNS enrichment (R)
Construct (chain): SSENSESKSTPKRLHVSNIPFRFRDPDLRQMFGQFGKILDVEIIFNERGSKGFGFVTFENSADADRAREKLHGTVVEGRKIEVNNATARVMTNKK
GGGAGUUCUACAGUCCGACGAUCGCAUGCACGUGCGCGUGUGUGCACACGCACACACACACACACACACACACACACACACACACACAAUGGGAGUGGGAUUAAGGUUUUCAUAAAUCUCAGCCAAUGGUCUUUGGAAUUCUCGGGUGCCAA: 7.06
GGGAGUUCUACAGUCCGACGAUCACCCAUCAGGGGUGUAGCACAGGGUUAGCCAAGCCCCUGUGGGGUGCUUGGAUCAGGAGAGGAUACCUCAGUGGUUAAGGUUCUGAUGGACGCACAUAUACAUAGAUGUAUGGAAUUCUCGGGUGCCAA: 0.331
GGGAGUUCUACAGUCCGACGAUCCUUCUGACCUUGACACUCCGGCCUCAAGCAGUUGCUGCAGAGUGGUUCUUUUUGCAUUUAAUGCCCAUCACUAUCCUCAUCCCAAAUAAAAUCCAUUCAUACUAGUGGACUGGAAUUCUCGGGUGCCAA: 0.688
GGGAGUUCUACAGUCCGACGAUCAAGCAAAUGCAGUAUAUUAAAGGUGAACACCACACUGAAACUCCCAACUCCUGACAGAAUAACCAGGCUCUUGAUUUAGAUCAUGUGGAAGGUGAGAUAUAAAUGUAUAUUGGAAUUCUCGGGUGCCAA: 0.641

Set 2
Target: Interferon regulatory factor 5, full length, phosphomimetic (IRF5, Homo sapiens, UniProt Q13568-2, residues 1-514, K96S/S451D/S453D/S456D/S462D)
Technique: protein-binding microarray
Molecule type: double-stranded DNA, one strand shown
Sample: in vitro
Concentration: 250 nM
Setting: 60-bp whole probe
Together with: salmon DNA 0.4 mg/ml
Relative to: random background probes
Direction: higher = stronger binding
Quantity: log fluorescence
GCCTAGCACGACGGACTGCTACTGCTGGCGTGCTAGGTCTTGATTCGCTTGACGCTGCTG: -0.487 z-score
GCCTAGCACTTAGGTTTCCTTCTCCTTCAGTGCTAGGTCTTGATTCGCTTGACGCTGCTG: 1.05 z-score
GCCTAGCACTCAATTTTTTTTATTTAACTGTGCTAGGTCTTGATTCGCTTGACGCTGCTG: 1.13 z-score
GCCTAGCACTCAACAGTTTTATTTTAGACTGTGCTAGTCTTGATTCGCTTGACGCTGCTG: 0.996 z-score

Set 3
Target: Histone acetyltransferase KAT6A, winged helix 1, GST fusion (KAT6A, Homo sapiens, UniProt Q92794, residues 1-85)
Technique: protein binding microarray
Molecule type: double-stranded DNA, one strand shown
Sample: in vitro
Concentration: not given
Setting: 8-mer, flanks averaged, mean of 2 arrays, mostly near background
Relative to: not given
Direction: higher = stronger binding
Quantity: E-score
Residues (chain): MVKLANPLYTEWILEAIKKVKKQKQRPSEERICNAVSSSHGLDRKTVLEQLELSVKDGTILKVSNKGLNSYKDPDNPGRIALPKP
AAAGTAAG: -0.218
AGTCGCAC: 0.112
CACGCTAC: 0.0871
CGGTTCCA: 0.0619
GACAAAAC: -0.141
GAGACCGC: 0.3
AGACTTGG: -0.288

Other studies, line by line
PhoQ, residues 284 288 289 292 302 303 SSTLLI — fold induction (PhoP, residues 12 14 15 18 19 STWGI (Escherichia coli, UniProt P23836); Sort-seq, measured: YFP reporter; E. coli; PhoQ-PhoP variant library, together with: 10 µM Mg2+; relative to: high Mg2+ state, higher = stronger signaling): 3.49

For quick reference, copied from above (other studies, line by line):
PhoQ, residues 284 288 289 292 302 303 SSTLLI — fold induction (PhoP, residues 12 14 15 18 19 STWGI (Escherichia coli, UniProt P23836); Sort-seq, measured: YFP reporter; E. coli; PhoQ-PhoP variant library, together with: 10 µM Mg2+; relative to: high Mg2+ state, higher = stronger signaling): 3.49
